# Published values gathered from unrelated publications.
# A part holds a random share of what one study measured. Values joined by “and” are separate records of one study, mostly repeats; a detail may differ.
# Sequence of UniProt O60674 (whole entry, looked up): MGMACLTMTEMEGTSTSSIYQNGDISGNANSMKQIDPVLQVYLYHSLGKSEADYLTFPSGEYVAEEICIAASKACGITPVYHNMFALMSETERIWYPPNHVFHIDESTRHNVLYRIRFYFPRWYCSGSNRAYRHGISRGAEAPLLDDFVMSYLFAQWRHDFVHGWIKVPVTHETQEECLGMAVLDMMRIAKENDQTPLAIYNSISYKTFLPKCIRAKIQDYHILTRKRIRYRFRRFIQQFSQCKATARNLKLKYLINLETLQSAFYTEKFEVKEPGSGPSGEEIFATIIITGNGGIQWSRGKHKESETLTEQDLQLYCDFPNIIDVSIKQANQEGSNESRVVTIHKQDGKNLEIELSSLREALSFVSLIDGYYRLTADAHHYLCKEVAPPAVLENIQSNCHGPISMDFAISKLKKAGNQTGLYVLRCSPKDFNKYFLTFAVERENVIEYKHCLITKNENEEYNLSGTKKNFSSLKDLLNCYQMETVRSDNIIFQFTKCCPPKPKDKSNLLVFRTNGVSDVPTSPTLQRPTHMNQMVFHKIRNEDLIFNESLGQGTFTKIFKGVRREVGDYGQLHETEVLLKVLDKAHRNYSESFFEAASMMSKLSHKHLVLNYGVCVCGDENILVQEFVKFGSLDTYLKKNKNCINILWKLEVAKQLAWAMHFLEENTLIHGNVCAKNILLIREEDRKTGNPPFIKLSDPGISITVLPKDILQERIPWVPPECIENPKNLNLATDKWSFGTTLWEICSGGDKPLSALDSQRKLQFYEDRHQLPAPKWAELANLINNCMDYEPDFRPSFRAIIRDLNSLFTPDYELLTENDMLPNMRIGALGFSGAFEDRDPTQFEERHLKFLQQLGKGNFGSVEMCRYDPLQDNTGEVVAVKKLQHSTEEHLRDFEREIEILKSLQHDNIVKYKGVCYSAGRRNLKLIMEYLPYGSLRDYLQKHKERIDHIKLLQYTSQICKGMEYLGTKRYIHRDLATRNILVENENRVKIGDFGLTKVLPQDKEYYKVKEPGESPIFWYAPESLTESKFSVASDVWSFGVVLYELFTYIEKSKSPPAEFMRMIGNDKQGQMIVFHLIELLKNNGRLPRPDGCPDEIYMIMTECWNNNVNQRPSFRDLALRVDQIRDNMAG
# Sequence of UniProt Q8IYT8 (whole entry, looked up): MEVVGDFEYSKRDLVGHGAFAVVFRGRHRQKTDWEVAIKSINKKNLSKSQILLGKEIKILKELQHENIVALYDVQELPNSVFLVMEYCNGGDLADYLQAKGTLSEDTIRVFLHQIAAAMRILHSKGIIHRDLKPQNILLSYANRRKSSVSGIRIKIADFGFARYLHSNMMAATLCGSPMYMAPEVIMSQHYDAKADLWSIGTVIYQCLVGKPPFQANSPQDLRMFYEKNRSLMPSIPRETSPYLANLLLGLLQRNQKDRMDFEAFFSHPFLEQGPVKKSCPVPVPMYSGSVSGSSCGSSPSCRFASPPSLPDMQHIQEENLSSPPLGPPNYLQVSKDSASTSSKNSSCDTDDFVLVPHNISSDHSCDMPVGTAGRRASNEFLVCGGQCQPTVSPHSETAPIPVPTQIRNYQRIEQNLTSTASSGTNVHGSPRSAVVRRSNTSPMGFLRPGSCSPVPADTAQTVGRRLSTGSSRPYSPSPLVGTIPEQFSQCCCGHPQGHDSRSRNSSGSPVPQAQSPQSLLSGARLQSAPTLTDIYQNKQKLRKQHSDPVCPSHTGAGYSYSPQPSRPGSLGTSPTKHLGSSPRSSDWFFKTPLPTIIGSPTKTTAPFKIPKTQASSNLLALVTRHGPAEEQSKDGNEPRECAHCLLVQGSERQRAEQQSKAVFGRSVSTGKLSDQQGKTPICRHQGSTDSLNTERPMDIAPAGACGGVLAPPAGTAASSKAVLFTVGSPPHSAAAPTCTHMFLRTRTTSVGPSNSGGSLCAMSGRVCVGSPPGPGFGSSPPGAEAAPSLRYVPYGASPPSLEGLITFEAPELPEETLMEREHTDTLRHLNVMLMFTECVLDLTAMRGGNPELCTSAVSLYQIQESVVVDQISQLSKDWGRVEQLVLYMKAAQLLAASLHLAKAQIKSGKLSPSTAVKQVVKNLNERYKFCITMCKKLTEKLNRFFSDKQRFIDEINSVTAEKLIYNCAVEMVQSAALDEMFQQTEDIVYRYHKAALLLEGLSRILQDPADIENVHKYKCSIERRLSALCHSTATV
# Sequence of UniProt P42336 (whole entry, looked up): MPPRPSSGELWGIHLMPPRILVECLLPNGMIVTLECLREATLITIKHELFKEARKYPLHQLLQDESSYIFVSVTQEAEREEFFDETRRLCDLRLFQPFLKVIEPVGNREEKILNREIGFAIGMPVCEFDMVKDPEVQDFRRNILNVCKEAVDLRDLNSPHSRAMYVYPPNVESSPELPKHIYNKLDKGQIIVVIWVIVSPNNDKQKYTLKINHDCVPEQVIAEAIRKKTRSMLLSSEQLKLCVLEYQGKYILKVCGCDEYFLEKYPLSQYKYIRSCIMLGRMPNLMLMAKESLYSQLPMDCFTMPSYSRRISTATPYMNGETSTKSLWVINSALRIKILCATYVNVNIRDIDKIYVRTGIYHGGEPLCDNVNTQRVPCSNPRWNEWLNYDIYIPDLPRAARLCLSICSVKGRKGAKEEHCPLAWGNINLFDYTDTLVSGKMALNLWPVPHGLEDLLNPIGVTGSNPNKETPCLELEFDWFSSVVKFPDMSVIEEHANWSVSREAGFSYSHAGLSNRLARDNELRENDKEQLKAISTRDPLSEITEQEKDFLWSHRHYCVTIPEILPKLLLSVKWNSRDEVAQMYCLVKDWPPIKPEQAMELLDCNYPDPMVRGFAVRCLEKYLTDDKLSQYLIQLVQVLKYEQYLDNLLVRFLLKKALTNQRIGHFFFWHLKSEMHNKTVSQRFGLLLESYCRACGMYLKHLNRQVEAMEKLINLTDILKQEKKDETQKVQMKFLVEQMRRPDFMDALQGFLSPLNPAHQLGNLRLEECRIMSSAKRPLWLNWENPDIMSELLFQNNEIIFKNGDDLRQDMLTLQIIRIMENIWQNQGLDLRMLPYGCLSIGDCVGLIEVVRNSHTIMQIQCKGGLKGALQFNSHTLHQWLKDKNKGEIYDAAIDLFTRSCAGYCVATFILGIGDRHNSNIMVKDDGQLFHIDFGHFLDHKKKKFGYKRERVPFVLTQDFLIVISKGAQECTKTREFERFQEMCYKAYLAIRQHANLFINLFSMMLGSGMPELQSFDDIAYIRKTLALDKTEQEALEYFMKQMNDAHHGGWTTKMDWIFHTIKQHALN
# Sequence of UniProt P28482 (whole entry, looked up): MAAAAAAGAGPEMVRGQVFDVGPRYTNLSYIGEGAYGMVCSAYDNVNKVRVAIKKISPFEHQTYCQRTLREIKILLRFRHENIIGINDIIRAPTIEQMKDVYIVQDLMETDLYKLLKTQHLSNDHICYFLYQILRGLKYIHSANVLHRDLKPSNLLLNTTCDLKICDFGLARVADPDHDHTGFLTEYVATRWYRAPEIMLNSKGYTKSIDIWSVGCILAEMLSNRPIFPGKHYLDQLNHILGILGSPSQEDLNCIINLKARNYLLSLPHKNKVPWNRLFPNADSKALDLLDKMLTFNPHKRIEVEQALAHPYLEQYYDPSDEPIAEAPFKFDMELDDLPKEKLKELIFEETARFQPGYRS

# Sample 1
# Cell line: MDA-MB-468
# Effect on: cell viability
# Method: CellCounting-Lite
# Tested at: 8.23 nM
# Temperature: 37 °C
# Reading: higher = more viable cells
Compound,luminescence signal
CCn1cnc2c(NCc3nc4cc(Cl)c(Cl)cc4[nH]3)nc(N3CCN(S(C)(=O)=O)CC3)nc21,425000 a.u. and 416000 a.u. and 406000 a.u.
CCn1cnc2c(NCc3nc4cc(Cl)c(Cl)cc4[nH]3)nc(N3CCC(NC(C)=O)CC3)nc21,397000 a.u. and 477000 a.u. and 448000 a.u.
CCn1cnc2c(NCc3nc4cc(Cl)c(Cl)cc4[nH]3)nc(N3CCN(C(=O)[C@H](C)NC(C)=O)CC3)nc21,483000 a.u. and 429000 a.u. and 516000 a.u.
CC(=O)N1CCN(c2nc(NCc3nc4cc(Cl)c(Cl)cc4[nH]3)c3ncn(C)c3n2)CC1,451000 a.u. and 412000 a.u. and 417000 a.u.
CCn1cnc2c(NCc3nc4cc(Cl)c(Cl)cc4[nH]3)nc(N3CCN(C(=O)c4cccnc4)CC3)nc21,92800 a.u. and 91100 a.u. and 104000 a.u.
CCn1cnc2c(NCc3nc4cc(Cl)c(Cl)cc4[nH]3)nc(N3CCN(Cc4ccncc4)CC3)nc21,411000 a.u. and 463000 a.u. and 421000 a.u.
CCn1cnc2c(NCc3nc4cc(Cl)c(Cl)cc4[nH]3)nc(N3CCN(C(=O)c4ccccc4)CC3)nc21,393000 a.u. and 405000 a.u. and 423000 a.u.
CCn1cnc2c(NCc3nc4cc(Cl)c(Cl)cc4[nH]3)nc(N3CCN(C(=O)c4ccccn4)CC3)nc21,109000 a.u. and 110000 a.u. and 135000 a.u.
CCn1cnc2c(NCc3nc4cc(F)c(F)cc4[nH]3)nc(N3CCn4ncnc4C3)nc21,444000 a.u. and 413000 a.u. and 388000 a.u.
CCn1cnc2c(NCc3nc4cc(Cl)c(Cl)cc4[nH]3)nc(N3CCn4ncnc4C3)nc21,248000 a.u. and 193000 a.u. and 206000 a.u.
CCn1cnc2c(NCc3nc4cc(Cl)c(Cl)cc4[nH]3)nc(N3CCN(c4ccccn4)CC3)nc21,435000 a.u. and 484000 a.u. and 472000 a.u.

# Sample 2
# Target: Membrane-associated tyrosine- and threonine-specific cdc2-inhibitory kinase (PKMYT1, Homo sapiens, UniProt Q99640)
# Effect on: binding
# Method: HTRF
# Tested at: 4.12 nM
# Residues (Q99640 1-499): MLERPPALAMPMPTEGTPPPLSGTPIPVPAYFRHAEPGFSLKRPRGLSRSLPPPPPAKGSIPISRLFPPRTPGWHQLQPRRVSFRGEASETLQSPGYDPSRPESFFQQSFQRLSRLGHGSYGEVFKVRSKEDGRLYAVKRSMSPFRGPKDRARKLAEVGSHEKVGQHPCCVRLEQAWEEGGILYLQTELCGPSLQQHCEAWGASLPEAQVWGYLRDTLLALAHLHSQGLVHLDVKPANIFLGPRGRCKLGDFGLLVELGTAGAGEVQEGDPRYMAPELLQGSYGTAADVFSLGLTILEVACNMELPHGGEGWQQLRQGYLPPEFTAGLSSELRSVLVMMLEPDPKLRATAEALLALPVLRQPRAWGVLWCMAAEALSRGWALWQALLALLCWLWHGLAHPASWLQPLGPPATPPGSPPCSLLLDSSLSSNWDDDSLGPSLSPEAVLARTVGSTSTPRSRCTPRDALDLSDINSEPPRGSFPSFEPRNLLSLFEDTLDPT
SMILES,inhibition
Cc1ccc(O)c(C)c1-c1cnc2[nH]c(-c3cnc(N4CCC5(CC4)CC(N4CCN(c6ccc7c(c6)C(=O)N(C6CCC(=O)NC6=O)C7=O)CC4)CO5)nc3)cc2c1C#N (mixture of isomers),45.2% and 40.9%
Cc1ccc(O)c(C)c1-c1cnc2[nH]c(-c3cnc(N4CCC(CCN5CCN(c6cc7c(cc6F)c(N6CCC(=O)NC6=O)nn7C)CC5)CC4)nc3)cc2c1C#N,58.2% and 56.9%
Cc1ccc(O)c(C)c1-c1cnc2[nH]c(-c3cnc(N4CCC(CCN5CCN(c6ccc7c(c6)C(=O)N(C6CCC(=O)NC6=O)C7=O)CC5)CC4)nc3)cc2c1C#N (racemic),37.5% and 35.9%
Cc1ccc(O)c(C)c1-c1cnc2[nH]c(-c3cnc(N4CCC(CN5CCN(c6ccc(NC7CCC(=O)NC7=O)c(F)c6)CC5)CC4)nc3)cc2c1C#N (racemic),43.1% and 44.5%
Cc1ccc(O)c(C)c1-c1cnc2[nH]c(-c3cnc(N4CCC(CN5CCN(c6c(F)cc(NC7CCC(=O)NC7=O)cc6F)CC5)CC4)nc3)cc2c1C#N (racemic),14.7% and 13.9%

# Sample 3
# SMILES: C[C@@H]1CN(c2ccc(-c3cc(C(=O)NCCOCCOCCOCCOCCNC(=O)/C=C/c4[nH]cc(C(=O)N[C@@H](CC(N)=O)c5ccc(F)c(Cl)c5)c4-c4ccc(Cl)cc4F)ccc3F)cc2NC(=O)c2c[nH]c(=O)cc2C(F)(F)F)C[C@H](C)N1C
# Effect on: thermal unfolding
# Method: differential scanning fluorimetry
# Tested at: 5.5 µM
# Reading: higher = more unfolded
# DCAF1: DDB1- and CUL4-associated factor 1 (DCAF1, Homo sapiens, UniProt Q9Y4B6)
# Sequence of UniProt Q9Y4B6 (whole entry, looked up): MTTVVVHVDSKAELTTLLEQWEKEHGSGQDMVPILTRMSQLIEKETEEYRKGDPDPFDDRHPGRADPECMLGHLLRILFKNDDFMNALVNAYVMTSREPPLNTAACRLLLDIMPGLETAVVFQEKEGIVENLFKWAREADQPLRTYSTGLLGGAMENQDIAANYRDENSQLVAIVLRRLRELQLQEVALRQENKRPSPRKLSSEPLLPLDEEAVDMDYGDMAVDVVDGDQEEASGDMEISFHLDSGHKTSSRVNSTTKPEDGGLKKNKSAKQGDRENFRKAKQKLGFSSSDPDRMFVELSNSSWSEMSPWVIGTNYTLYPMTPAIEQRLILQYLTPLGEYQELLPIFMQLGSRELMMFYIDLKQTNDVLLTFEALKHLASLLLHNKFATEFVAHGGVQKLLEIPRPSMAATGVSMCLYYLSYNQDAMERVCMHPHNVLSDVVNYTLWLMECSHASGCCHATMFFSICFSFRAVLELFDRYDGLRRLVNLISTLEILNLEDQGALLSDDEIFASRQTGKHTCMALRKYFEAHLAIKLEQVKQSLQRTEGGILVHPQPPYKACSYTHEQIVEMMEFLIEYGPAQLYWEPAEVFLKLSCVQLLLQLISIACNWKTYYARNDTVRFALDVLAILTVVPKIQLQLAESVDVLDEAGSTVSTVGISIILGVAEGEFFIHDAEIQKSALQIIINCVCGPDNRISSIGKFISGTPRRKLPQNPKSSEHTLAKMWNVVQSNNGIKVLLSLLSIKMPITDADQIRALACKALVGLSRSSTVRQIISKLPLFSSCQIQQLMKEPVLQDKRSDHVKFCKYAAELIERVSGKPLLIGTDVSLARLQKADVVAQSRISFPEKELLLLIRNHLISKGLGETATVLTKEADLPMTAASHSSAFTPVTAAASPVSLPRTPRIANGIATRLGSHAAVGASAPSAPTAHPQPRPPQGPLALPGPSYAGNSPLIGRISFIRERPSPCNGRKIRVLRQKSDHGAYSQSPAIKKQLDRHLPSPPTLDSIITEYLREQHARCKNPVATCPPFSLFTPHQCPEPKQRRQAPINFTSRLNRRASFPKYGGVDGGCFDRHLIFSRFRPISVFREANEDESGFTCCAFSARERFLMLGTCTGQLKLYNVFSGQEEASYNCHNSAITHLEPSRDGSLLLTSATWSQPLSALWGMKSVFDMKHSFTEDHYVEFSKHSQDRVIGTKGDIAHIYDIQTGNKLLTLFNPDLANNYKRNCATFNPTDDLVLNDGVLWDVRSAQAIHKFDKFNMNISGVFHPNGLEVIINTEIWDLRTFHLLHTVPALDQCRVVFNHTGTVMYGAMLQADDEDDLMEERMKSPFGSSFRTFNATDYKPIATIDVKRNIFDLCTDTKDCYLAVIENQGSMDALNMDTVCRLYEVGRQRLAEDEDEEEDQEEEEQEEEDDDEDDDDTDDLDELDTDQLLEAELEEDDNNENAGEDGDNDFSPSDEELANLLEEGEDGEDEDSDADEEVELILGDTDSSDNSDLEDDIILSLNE
# WDR5: WD repeat-containing protein 5 (WDR5, Homo sapiens, UniProt P61964)
target,setting,SYPRO Orange fluorescence
DCAF1,85.21 °C,40000 a.u.
WDR5,36.2 °C,13500 a.u.
WDR5,93.01 °C,47500 a.u.
WDR5,90.81 °C,50100 a.u.
WDR5,83.41 °C,49400 a.u.
DCAF1,84.01 °C,41300 a.u.
DCAF1,36.4 °C,10500 a.u.
DCAF1,40.8 °C,11800 a.u.
WDR5,89.61 °C,51600 a.u.
WDR5,66.41 °C,14000 a.u.
DCAF1,31.4 °C,9680 a.u.

# Sample 4
# SMILES: COc1cc(-c2nc3ccc(C(=O)NCCCN4CCN(c5cccc(C)c5C)CC4)cc3n2C2CCC2)cc(OC)c1OC
# Effect on: binding
# Method: competition with immobilised ligand
# Tested at: 1 µM
target,remaining binding
"RET (Homo sapiens, UniProt P07949, V804L)",83%
"MAP3K1 (Homo sapiens, UniProt Q13233)",91%
"Tyrosine-protein kinase JAK1, JH1 (JAK1, Homo sapiens, UniProt P23458)",100%
"Ribosomal protein S6 kinase alpha-4, C-terminal kinase domain (RPS6KA4, Homo sapiens, UniProt O75676)",95%
"RPS6KB1 (Homo sapiens, UniProt P23443)",96%
"Tyrosine-protein kinase JAK2, JH1 (JAK2, Homo sapiens, UniProt O60674)",100%
"PIK3CA (Homo sapiens, UniProt P42336)",95%
"SIK2 (Homo sapiens, UniProt Q9H0K1)",100%
"MAP3K11 (Homo sapiens, UniProt Q16584)",100%
"MAPK6 (Homo sapiens, UniProt Q16659)",92%
"PTK6 (Homo sapiens, UniProt Q13882)",95%
"PTK2B (Homo sapiens, UniProt Q14289)",100%
"MYLK3 (Homo sapiens, UniProt Q32MK0)",99%
"KDR (Homo sapiens, UniProt P35968)",70%
"RIOK2 (Homo sapiens, UniProt Q9BVS4)",79%
"MAPK1 (Homo sapiens, UniProt P28482)",84%
"FLT3 (Homo sapiens, UniProt P36888, D835Y)",93%
"MET (Homo sapiens, UniProt P08581, M1250T)",89%
"MAP3K3 (Homo sapiens, UniProt Q99759)",100%
"ULK2 (Homo sapiens, UniProt Q8IYT8)",93%
"CHEK1 (Homo sapiens, UniProt O14757)",82%
"Tyrosine-protein kinase ABL1, non-phosphorylated (ABL1, Homo sapiens, UniProt P00519, F317I)",83%
"BRAF (Homo sapiens, UniProt P15056, V600E)",99%
"FYN (Homo sapiens, UniProt P06241)",58%
"MAP3K9 (Homo sapiens, UniProt P80192)",69%

# A few entries again (sample 1):
Compound,luminescence signal
CCn1cnc2c(NCc3nc4cc(Cl)c(Cl)cc4[nH]3)nc(N3CCN(c4ccccn4)CC3)nc21,435000 a.u. and 484000 a.u. and 472000 a.u.
CCn1cnc2c(NCc3nc4cc(Cl)c(Cl)cc4[nH]3)nc(N3CCN(C(=O)c4cccnc4)CC3)nc21,92800 a.u. and 91100 a.u. and 104000 a.u.
CCn1cnc2c(NCc3nc4cc(Cl)c(Cl)cc4[nH]3)nc(N3CCC(NC(C)=O)CC3)nc21,397000 a.u. and 477000 a.u. and 448000 a.u.
CC(=O)N1CCN(c2nc(NCc3nc4cc(Cl)c(Cl)cc4[nH]3)c3ncn(C)c3n2)CC1,451000 a.u. and 412000 a.u. and 417000 a.u.
CCn1cnc2c(NCc3nc4cc(Cl)c(Cl)cc4[nH]3)nc(N3CCN(S(C)(=O)=O)CC3)nc21,425000 a.u. and 416000 a.u. and 406000 a.u.
CCn1cnc2c(NCc3nc4cc(F)c(F)cc4[nH]3)nc(N3CCn4ncnc4C3)nc21,444000 a.u. and 413000 a.u. and 388000 a.u.
CCn1cnc2c(NCc3nc4cc(Cl)c(Cl)cc4[nH]3)nc(N3CCN(C(=O)c4ccccn4)CC3)nc21,109000 a.u. and 110000 a.u. and 135000 a.u.
